# Assay results from different studies.
# Compare with care: the assays were run in different laboratories. ± gives the spread as reported.
Structure (SMILES),tested on,assay,test system,conditions,scale,quantity,value
O=c1nc(NO)ccn1[C@@H]1O[C@H](CO)[C@@H](O)[C@H]1O,,,rat fetus dialysate,"1000 ng/mL, 6 h, room temperature, high QC concentration, with: molnupiravir",,bench-top stability,104 ± 3.07%
CCN(CCO)CCCC(C)Nc1ccnc2cc(Cl)ccc12 (stereo not shown),,,newly diagnosed glioblastoma patients,"oral, 400 mg/dose, grade 1, with: radiotherapy plus temozolomide",,erythema multiforme patients,14%
O=C(Nc1ccccc1)C1CCN(C(=O)Oc2cccnc2)CC1,,refers to: reproductive and breast disorders,healthy women,"oral, 100 mg, 9 days",,subjects with adverse event,0%
CC(C)C[C@H](NC(=O)[C@H](CCCCN)NC(=O)OCC1c2ccccc2-c2ccccc21)C(=O)N[C@H](C(=O)N[C@@H](Cc1ccccc1)C(=O)N[C@@H](Cc1ccccc1)C(=O)N[C@@H](CCCCN)C(=O)NCC(=O)N[C@@H](Cc1ccccc1)C(=O)N[C@@H](C)C(=O)N[C@@H](Cc1c[nH]c2ccccc12)C(=O)N[C@@H](CC(N)=O)C(=O)N[C@H](C(=O)N[C@H]1CSSC[C@@H](C(=O)N[C@@H](Cc2c[nH]cn2)C(=O)N[C@@H](CCCNC(=N)N)C(=O)N[C@@H](CCCNC(=N)N)C(=O)N[C@@H](C)C(=O)N[C@@H](CC(N)=O)C(N)=O)NC(=O)[C@H](C(C)C)NC(=O)[C@H](CCCNC(=N)N)NC(=O)[C@H](C(C)C)NC(=O)CNC(=O)[C@H](CC(N)=O)NC(=O)[C@H](CCCNC(=N)N)NC(=O)[C@H](Cc2ccc(O)cc2)NC(=O)[C@H](C(C)C)NC1=O)C(C)C)C(C)C,,,"ICR mouse, blood","intramammary, 5 mg/kg, day 5, 3 d dosing",,eosinophils,2.3 ± 0.16%
C[C@]1(CO)Cc2ncn(-c3ccc(C#N)c(Cl)c3)c2C(=O)O1,,,human,"10 mg multiple doses, fasted",,subjects with drug-related urine abnormality,0%
C=CC(=O)N[C@H]1C=C(C)c2c(-c3cnc4ccccc4c3)c3c(N)ncnc3n2C1,,,"male Han Wistar rat, brain","intravenous infusion, 2 µmol/kg/h, 4 h",relative to: plasma,tissue/plasma ratio,0.023 ± 0.01
CCS(=O)(=O)Nc1ccc(Oc2ccc(F)cc2F)c(-c2cn(C)c(=O)c3[nH]ccc23)c1,,skin laceration leading to discontinuation,"human, relapsed/refractory AML","oral, dose not given",,treatment-emergent adverse events,0%
CO[C@H]1C[C@@H]2CC[C@@H](C)[C@@](O)(O2)C(=O)C(=O)N2CCCC[C@H]2C(=O)O[C@H]([C@H](C)C[C@@H]2CC[C@@H](OC(=O)NCCOCCOCCOCCOCCOCCOCCOCCOCCC(=O)N3CCc4cc(Cn5nc(-c6ccc7oc(N)nc7c6)c6c(N)ncnc65)ccc4C3)[C@H](OC)C2)C[C@@H](O)[C@H](C)/C=C(\C)[C@@H](O)[C@@H](OC)C(=O)[C@H](C)C[C@H](C)/C=C/C=C/C=C/1C,,,patients with advanced solid tumours,"intravenous, 1.6 mg/3 mg weekly, any grade",,incidence of Nausea TRAE,0%
Cc1cccc(-c2[nH]c(CNc3ccccc3F)nc2-c2ccc3ncnn3c2)n1,,,"human, relapsed/refractory multiple myeloma","oral, twice daily, with: pomalidomide 4 mg",,MTD,200 mg
OCc1cc(C(O)CNCCCCCCOCCCCc2ccccc2)ccc1O (stereo not shown),,,human,oral,,absorption rate constant,1 h⁻¹
O=C(O)CCCOc1ccc(F)cc1-c1cc(-c2ccccc2C(F)(F)F)n(-c2ccccc2)n1,,refers to: ALT,"Crl:CD(SD) rats, female, serum","iv, 25 µg/kg, 14 days",,serum enzyme activity,26.6 ± 3.5 U/L
Cc1cc(C)c(CNC(=O)c2cc(Cl)c3c(c2C)O[C@@](C)([C@H]2CC[C@H](N(C)C)CC2)O3)c(=O)[nH]1,,,"human, relapsed/refractory NHL","concentration not given, all TEAEs, grade 5",,Rash incidence,0%
CCCCN1CCC(COC(=O)c2ccc(N)c(O[11CH3])c2)CC1,,,"rhesus monkey, arterial plasma","iv, 3.02 min",,parent radioligand fraction,48.3%
CN1CC[C@@H](c2c(O)cc(O)c3c(=O)cc(-c4ccc(C(F)(F)F)cc4Cl)oc23)[C@@H]1CO,,refers to: Pyrexia,B-cell malignancies,"oral, 100 mg, intermittent dosing",,patients with adverse event,0%
CC[C@H](C)[C@@H]1NC(=O)[C@@H]2CSSC[C@H](NC(=O)[C@H](CCCNC(=N)N)NC(=O)[C@@H]3CSSC[C@H](NC1=O)C(=O)N[C@@H]([C@@H](C)O)C(=O)N[C@@H](CCCNC(=N)N)C(=O)NCC(=O)N[C@@H](Cc1ccccc1)C(=O)N3)C(=O)N[C@@H](CC(C)C)C(=O)N[C@H]1CSSC[C@H](NC(=O)[C@H](C(C)C)NC(=O)CNC(=O)[C@H](CCCNC(=N)N)NC(=O)[C@H](CCCNC(=N)N)NC1=O)C(=O)N[C@@H](CCCNC(=N)N)C(=O)N2,,,"Sprague-Dawley rat, female, lung","5 mg/kg, histopathology, multifocal",direction not given,alveolar macrophage aggregation score,1 to 2
C[C@@H](NC(=O)N1C(=O)[C@H](Cc2ccnc(N)c2)[C@H]1C(=O)O)C1CCCCC1,,,healthy adult Chinese volunteers,"continuous intravenous infusion, 2.25 mg/kg/h, 5-day infusion, CTCAE 5.0 grading",,incidence of AEs leading to discontinuation,25%
CC(=O)c1c(C)c2cnc(Nc3ccc(C4CCN(CCS(C)(=O)=O)CC4)cn3)nc2n(C2CCCC2)c1=O,,,"human, plasma","oral, 75 mg twice daily, day 1, single dose, with: letrozole",,AUC(0-inf),679 ng·h/mL
Oc1c(Cl)cc2c(c1Cl)Oc1cc(Cl)c(Cl)cc1O2,,ultrafiltration,cow milk whey,500 nM nominal in whole milk,,final permeate concentration,47.3 nM
CC1(C)[C@H](C(=O)O[C@H](C#N)c2cccc(Oc3ccccc3)c2)[C@@H]1C=C(Br)Br,,IVIVE scaling,human adult,,,hepatic intrinsic clearance,7420 L/h/kg liver
CN1CCN(S(=O)(=O)c2cc([N+](=O)[O-])ccc2N(CCOS(C)(=O)=O)CCOS(C)(=O)=O)CC1,,,"naive NOD/SCID mice, pooled blood","intraperitoneal, 25 mg/kg, week 4",,albumin,42 g/L
COc1ncccc1-c1cnn2ccc(N3CCN(C(=O)OC(C)C)CC3)nc12,,,"rat, STZ model, brain","oral, 10 mg/kg, 240 min",,drug concentration,5.04 µM
COc1cc2c(Oc3ccc4[nH]c(C)cc4c3F)ccnc2cc1OCC1(N)CC1,,,paediatric recurrent refractory sarcoma,8 mg,,grade 1 or 2 abdominal distension,0%
O=c1ccc2ncc(=O)n3c2n1C[C@H]3CN1CCC(NCc2cc3c(cn2)OCCC3)CC1,,,healthy human volunteers,"oral, 1500 mg, alone, arithmetic mean",,renal clearance,280 mL/min
O=c1cc(-c2ccc(O)c(O)c2)oc2cc(O)cc(O)c12,,,"male Sprague-Dawley rat, lean","oral, 100 mg/kg of neohesperidin, 12 to 24 h",,faecal excreted amount,619 ± 513 ng
Cc1ccccc1CN1C(=O)c2ccccc2Sc2ccc(C(=O)NCCCN3CCOCC3)cc21,Vero-E6,CellTiter-Glo ATP,,"concentration not given, 72 h, first round 5-point","relative to: DMSO 0%, hyamine -100%, more negative, more toxic",cytotoxicity efficacy,0%
CCc1ccc(CC/C=C/c2ccc3c(c2)C(=O)CC3)cc1,,,"Sprague-Dawley rat, female","oral, 30 mg/kg/day, 14 days",,Hemoglobin,147 g/L
CC(C)(C)NCc1ccc(Nc2ccnc3cc(Cl)ccc23)cc1O,Vero-E6,CellTiter-Glo ATP,,"concentration not given, 72 h, retest 8-point duplicates","relative to: DMSO 0%, hyamine -100%, more negative, more toxic",cytotoxicity efficacy,-29.5%
COc1ncnn2ccc(-c3cnc4nc(C)n(Cc5nnc([C@@H](C)F)o5)c4c3)c12,,,human patients,"oral, dose not given, grade 1 adverse drug reaction",,incidence of Malaise,14.3%

# A few entries again:
Structure (SMILES),tested on,assay,test system,conditions,scale,quantity,value
O=c1cc(-c2ccc(O)c(O)c2)oc2cc(O)cc(O)c12,,,"male Sprague-Dawley rat, lean","oral, 100 mg/kg of neohesperidin, 12 to 24 h",,faecal excreted amount,619 ± 513 ng
Oc1c(Cl)cc2c(c1Cl)Oc1cc(Cl)c(Cl)cc1O2,,ultrafiltration,cow milk whey,500 nM nominal in whole milk,,final permeate concentration,47.3 nM
COc1ncnn2ccc(-c3cnc4nc(C)n(Cc5nnc([C@@H](C)F)o5)c4c3)c12,,,human patients,"oral, dose not given, grade 1 adverse drug reaction",,incidence of Malaise,14.3%
